Experimental data collected from several papers.
± marks the error that the study gave. Where no end group is shown, it is not given here. The star is where a group is joined.
Cell line: HeLa

Molecule	test	conditions	scale	measurement	result
CC(C)[C@@H]1CN(c2nc(Nc3cc(C(C)(C)C)[nH]n3)c3cc[nH]c3n2)CCN1	live-cell imaging	10 µM, 1 h, 20 min after furrow ingression	–	GFP-spastin puncta count	44 ± 9
N=C(N)NCCC[C@@H]1NC(=O)[C@H](CCCNC(=N)N)NC(=O)[C@H](CCCNC(=N)N)NC(=O)[C@H](Cc2ccc3ccccc3c2)NC(=O)[C@H](Cc2ccccc2)NC(=O)[C@H](CCC(N)=O)NC(=O)[C@H](CCCNC(=N)N)NC1=O	flow cytometry, refers to: NF-labelled peptide	5 µM, 2 h, 37 °C, miniPEG linker	reference: compound set to 100%	cytosolic entry	100%
COc1cc(-c2cn(-c3ccc(C(C)(C)C)cc3)nn2)[nH]c1/C=N/C12CC3CC(CC(C3)C1)C2.Cl	–	3.9 µM, 60 and 120 min, added: syrosingopine 10 µM pretreatment	reference: syrosingopine alone	intracellular lactate decrease	~50%
CC[C@H](C)[C@H](NC(=O)[C@H](Cc1c[nH]cn1)NC(=O)[C@H](Cc1ccccc1)NC(=O)[C@H]1CSCc2ccccc2CSC[C@@H](NC(=O)[C@@H](NC(=O)c2cccnc2)C(C)C)C(=O)N[C@@H](CC(N)=O)C(=O)N[C@@H](C)C(=O)N1)C(=O)N[C@@H](Cc1c[nH]c2ccccc12)C(=O)N[C@@H](Cc1c[nH]cn1)C(N)=O	immunoblot p62 and LC3-II	concentration not given, 2 h, acidified Opti-MEM	–	autophagy induction	inactive
CCCc1ccc(S(=O)(=O)Oc2ccc(NC(=O)c3ccccc3)cc2)cc1	cell growth or viability, MTT	100 µM, 24 h	–	inhibition	38.7%
CCn1c2ccccc2c2cc(C3CC(c4cc5ccccc5oc4=O)=NN3C(N)=O)ccc21 (stereo not drawn)	propidium iodide staining	IC50, 24 h	–	cells in G0/G1 phase	76.8%
Cc1ccc(C(=O)Nc2ccc(OS(=O)(=O)c3ccc(C)cc3)cc2)cc1	cell growth or viability, MTT	100 µM, 24 h	–	inhibition	16.4%
5FAM-KKSRRC(Farnesyl)VLS (N-5-FAM, S-farnesyl-Cys; 5FAM = O=C1OC2(c3ccc(O)cc3Oc3cc(O)ccc32)c2ccc(C(=O)*)cc21; Farnesyl = CC(C)=CCC/C(C)=C/CC/C(C)=C/C*)	flow cytometry	1 µM, 2 h, added: rotenone 12 µM and 2-deoxyglucose 15 mM	reference: normal ATP conditions	cellular uptake	no effect
Cc1ccc(S(=O)(=O)Oc2ccc(NC(=O)C3(C)c4ccccc4-c4ccccc43)cc2)cc1	cell growth or viability, MTT	100 µM, 24 h	–	inhibition	33.8%
CC(C=NN=C(N)[S-])=NN=C(N)[S-].N.N.O=[N+]([O-])[O-].[Co+3]	cell growth or viability, MTT	–	–	IC50	~22 µM
Cc1ccc(C(=O)Nc2ccc(OS(=O)(=O)c3ccc(Cl)cc3)cc2)cc1	cell growth or viability, MTT	100 µM, 24 h	–	inhibition	32.4%
COc1cc2c(cc1OC)-c1c/c(=N\c3c(C)cc(C)cc3C)n(C)c(=O)n1CC2	rescue of DNMDP cytotoxicity	48 h, added: DNMDP	–	EC50	< 1 nM
